{"data": "Published values of several laboratories", "note": "Protocols differ between the studies behind these lines. ± marks the error that the study gave."}
{"Structure (SMILES)": "C[C@H]1C[C@H]2CSC(N)=N[C@@]2(c2nc(NC(=O)c3ccc(OC(F)F)cn3)cs2)CO1", "assay": "item: Aβ1-40", "system": "healthy adults, plasma", "setting": "400 mg single dose, 48 h post-dose", "scale": "relative to: placebo", "measurement": "percent change from baseline", "value": "-86.1%"}
{"Structure (SMILES)": "NC(=O)c1cnc2[nH]ccc2c1N[C@@H]1[C@@H]2CC3C[C@H]1C[C@@](O)(C3)C2", "assay": "flow cytometry, item: CD4+ effector T cells", "system": "Japanese healthy subjects, peripheral blood", "setting": "oral, 100 mg twice daily, day 4", "measurement": "change from baseline", "value": "-0.08%"}
{"Structure (SMILES)": "OC(CCN1CCCCC1)(c1ccccc1)C1CC2C=CC1C2 (stereo not drawn)", "assay": "resting-state EEG", "system": "healthy elderly humans", "setting": "oral, 4 mg, eyes open, LS mean", "measurement": "gamma power, EEG, Pz-O1", "value": "0.9 µV²"}
{"Structure (SMILES)": "N#Cc1ccn2c(-c3ccncc3)c(-c3ccc(F)cc3)nc2c1", "assay": "kinase binding, competitor, MIB/MS competition, item: GIN4", "system": "Candida albicans cell lysate", "setting": "10 µM", "scale": "relative to: DMSO", "measurement": "log2 fold change", "value": -0.141}
{"Structure (SMILES)": "N#CCC1CCN(c2nc(Nc3ccc(N4CCC(O)CC4)cc3)c3c(=O)[nH]ncc3n2)CC1", "assay": "Olink multiplex, item: CD163", "system": "human, serum", "setting": "40 mg, day 29", "scale": "relative to: baseline", "measurement": "fold change from baseline", "value": -1.4}
{"Structure (SMILES)": "O=C(OC(C(F)(F)F)C(F)(F)F)N1CCN(Cc2cccc(Oc3ccccc3)c2)CC1", "assay": "PET", "system": "rhesus monkey, cerebellum", "setting": "intravenous, 0.03 mg/kg, pretreatment, with: [18F]T-401", "measurement": "tracer distribution volume", "value": "4.95 mL/cm3"}
{"Structure (SMILES)": "CC(C)NCC(O)c1ccc(O)c(O)c1 (stereo not drawn)", "system": "ventricular cardiomyocytes, C57BL/6 mouse", "setting": "dose not given, 0.2 s", "measurement": "sarcomere length", "value": "1.49 µm"}
{"Structure (SMILES)": "Cc1ccc([C@@H]2O[C@H](CO)[C@@H](O)[C@H](O)[C@H]2O)cc1Cc1ccc(-c2ccc(F)cc2)s1", "system": "Japanese type 2 diabetes patients", "setting": "100 mg, day 16", "scale": "relative to: day 0", "measurement": "change in 24-h mean serum insulin", "value": "-2.9 µU/mL"}
{"Structure (SMILES)": "COc1nnc2ccc(N3CCC(c4ccc(OCCN5CCN(C)C(=O)[C@H]5C)cc4)CC3)nn12", "system": "human patients", "setting": "30 mg once daily, 2-fold above baseline", "measurement": "time above HEXIM1 threshold", "value": "3.1 h"}
{"Structure (SMILES)": "CN[C@@H]1COc2c(S(=O)(=O)NC(=O)Nc3c4c(cc5c3CCC5)CCC4)cnn2C1", "assay": "item: IL-18", "system": "human participants, whole blood ex vivo", "setting": "900 mg single dose, 8 h, IL-18, circulating, adjusted for, with: LPS/ATP", "scale": "relative to: baseline", "measurement": "inhibition", "value": "108%"}
{"Structure (SMILES)": "Cc1cc(Nc2ccc(S(F)(F)(F)(F)F)cc2)n2nc(C(C)(F)F)nc2n1", "assay": "item: dihydroorotate", "system": "female CD-1 mice, pooled urine", "setting": "oral, 300 mg/kg daily, 0-8 h after dose 10", "measurement": "DHO concentration", "value": "4.46 ± 0.516 µM"}
{"Structure (SMILES)": "COc1ccccc1[C@H](Cn1c(=O)n(C(C)(C)C(=O)O)c(=O)c2c(C)c(-c3ncco3)sc21)OC1CCOCC1", "assay": "[1-13C]acetate infusion, isotopomer analysis", "system": "overweight or obese healthy men, plasma VLDL-TG palmitate", "setting": "oral, 20 mg single dose, 0 h relative to dose, fasted baseline", "measurement": "fractional hepatic DNL", "value": "7.34 % new palmitate"}
{"Structure (SMILES)": "O=C(O)CNC(=O)Cc1ccccc1", "system": "ventricular cardiomyocytes, C57BL/6 mouse", "setting": "dose not given, 0.732 s", "measurement": "sarcomere length", "value": "1.72 µm"}
{"Structure (SMILES)": "C[C@H](Oc1ccc(Br)cc1-c1ccon1)C(=O)O", "assay": "last response peak", "system": "human, tibialis anterior muscle", "setting": "100 mg, 30 Hz, single ascending dose", "measurement": "difference from placebo", "value": "20.4%"}
{"Structure (SMILES)": "N#Cc1ccc2c(-c3ccncc3)c(-c3ccc(F)cc3)nn2c1", "assay": "kinase binding, competitor, MIB/MS competition, item: TOR1", "system": "Candida albicans cell lysate", "setting": "10 µM", "scale": "relative to: DMSO", "measurement": "log2 fold change", "value": -0.443}
{"Structure (SMILES)": "C[C@@H](NC(=O)N1C(=O)[C@H](Cc2ccnc(N)c2)[C@H]1C(=O)O)C1CCCCC1", "system": "human", "setting": "iv infusion, 2.25 mg/kg/h, 24 h, unit not given", "scale": "relative to: baseline", "measurement": "PT AUEC", "value": 128}
{"Structure (SMILES)": "Cc1n[nH]c2ccc(-c3cc(OC[C@@H](N)Cc4ccccc4)cnc3-c3ccoc3)cc12", "assay": "kinase binding, competitor, MIB/MS competition, item: HST7", "system": "Candida albicans cell lysate", "setting": "1 µM", "scale": "relative to: DMSO", "measurement": "log2 fold change", "value": -0.0777}
{"Structure (SMILES)": "CC(C)[C@H](C(=O)Nc1ccc(C(=O)NO)cc1)c1ccccc1", "assay": "volumetric MRI", "system": "human, left internal auditory canal tumour", "setting": "dose not given, 224 days", "measurement": "tumour volume", "value": "2.4 cm³"}
